{"data": "Measurements of several laboratories", "note": "Protocols differ between the studies behind these lines. Values joined by “and” are separate records of one study, mostly repeats; a detail may differ. ± marks the error that the study gave."}
{"Compound": "CC(C)(C)NCCc1c[nH]c2cccc(O)c12.CC(C)(C)NCCc1c[nH]c2cccc(O)c12.O=C(O)/C=C/C(=O)O", "test system": "C57BL/6J mice", "setting": "subcutaneous, 10 mg/kg", "endpoint": "head twitch count", "result": "8.3 ± 1.4"}
{"Compound": "CS(=O)(=O)Nc1ncn(-c2cc(F)c(COc3ccc(OS(=O)(=O)F)cc3)c(F)c2)n1", "tested on": "Mycobacterium tuberculosis", "assay": "MABA", "test system": "H37Rv", "endpoint": "MIC90", "result": "0.039 µM"}
{"Compound": "CC(C)NCCc1c[nH]c2cccc(O)c12.O=C(O)/C=C/C(=O)O", "test system": "C57BL/6J mice", "setting": "subcutaneous, 10 mg/kg, 30 min", "endpoint": "distance travelled", "result": "1740 ± 331 cm"}
{"Compound": "CC[C@H](C)[C@H](NC(=O)[C@H](C)NC(=O)[C@H](CCCCN)NC(=O)[C@H](CC(C)C)NC(=O)[C@H](C)NC(=O)[C@@H](NC(=O)[C@H](Cc1c[nH]cn1)NC(=O)[C@H](CC(C)C)NC(=O)[C@@H](NC(=O)[C@@H](NC(=O)[C@H](CCCCN)NC(=O)[C@H](C)NC(=O)[C@H](C)NC(=O)[C@H](CO)NC(=O)[C@H](CCCCN)NC(=O)[C@H](Cc1ccccc1)NC(=O)[C@@H](NC(=O)[C@H](CCCCN)NC(=O)[C@H](CC(C)C)NC(=O)[C@H](Cc1ccccc1)NC(=O)[C@H](CO)NC(=O)[C@H](CCCCN)NC(=O)[C@H](Cc1c[nH]c2ccccc12)NC(=O)[C@H](CCCCN)NC(C)=O)[C@@H](C)O)[C@@H](C)O)C(C)C)[C@@H](C)O)C(=O)N[C@@H](CO)C(=O)N[C@@H](CO)C(N)=O", "tested on": "Enterococcus faecium", "test system": "Enterococcus faecalis", "setting": "40 strains", "endpoint": "MIC geometric mean", "result": "14.2 µg/mL"}
{"Compound": "CCCCCCCCCCCCCCCCCC[N+](C)(C)Cc1ccc(C[N+](C)(C)CCCCCCCCCCCCCCCCCC)cc1.[Br-].[Br-]", "tested on": "influenza A virus A/PR/8/34 (H1N1)", "setting": "concentration not given, co-treatment", "endpoint": "protection", "result": "60.1 ± 2.9%"}
{"Compound": "CC(C)N(CCC(C(N)=O)(c1ccccc1)c1ccccn1)C(C)C (centres unmarked)", "tested on": "human iPSC-derived cardiomyocytes", "assay": "MyBP-C/MYH ratio, plate-normalised SD score", "setting": "concentration not given, primary screen", "how to read": "direction not given", "endpoint": "activity score", "result": 3.5}
{"Compound": "COc1cc(CCC[P+](c2ccccc2)(c2ccccc2)c2ccccc2)c(OC)c2c1OCO2.[I-]", "tested on": "RXF 393", "assay": "SRB", "endpoint": "LC50", "result": "-4.41 log M"}
{"Compound": "C[C@H]1O[C@@H](O[C@H]2CC[C@@]3(C)[C@@H](CC[C@]4(C)[C@@H]3C=C[C@]35OC[C@@]6(CCC(C)(C)C[C@H]63)[C@@H](O)C[C@]54C)[C@]2(C)CO)[C@H](O)[C@@H](O[C@@H]2O[C@H](CO)[C@@H](O)[C@H](O)[C@H]2O)[C@H]1O", "test system": "mouse, ethanol-fed, hepatic SIRT1 knockdown, plasma", "setting": "dose not given, 5 h, high dose", "endpoint": "ALT activity", "result": "30.8 U/L and 17.8 U/L and 23 U/L and 27.3 U/L and 29.7 U/L and 25 U/L"}
{"Compound": "Cn1c(=O)ccc2ccc(F)c(CCNC[C@H]3CN(c4cnc5c(n4)NC(=O)CO5)C(=O)O3)c21", "tested on": "Klebsiella aerogenes", "endpoint": "MIC50", "result": "0.25 µg/mL"}
{"Compound": "CC[C@H](C)[C@@H]1NC(=O)[C@@H]2CCCN2C(=O)[C@H](CC(C)C)NC(=O)[C@H](CC(C)C)NC(=O)CNC(=O)[C@@H](NC(=O)[C@@H](NC(=O)[C@H](CC(=O)O)NC(=O)CNC(=O)[C@@H](NC(=O)[C@H](C)NC(=O)CNC(=O)[C@H](CCCCN)NC(=O)[C@H](CC(C)C)NC(=O)[C@H](CC(C)C)NC(=O)[C@H](CCCCN)NC(=O)CNC(=O)[C@@H](NC(=O)[C@@H](N)CC(C)C)C(C)C)C(C)C)C(C)C)CSSC[C@@H](C(=O)O)NC1=O", "assay": "RNA-seq, item: Cfap43", "test system": "mouse, traumatic brain injury model, frontal cortex and hippocampus", "setting": "dose not given", "how to read": "baseline: TBI alone", "endpoint": "log2 fold change", "result": -2.22}
{"Compound": "CCCCCCCCCCCCCCCC[N+](C)(C)CCCCCCCCCCCC[N+](C)(C)CCCCCCCCCCCCCCCC.[Br-].[Br-]", "tested on": "influenza A virus A/PR/8/34 (H1N1)", "setting": "concentration not given, post-treatment", "endpoint": "HA titre reduction", "result": "1.5 ± 0.5 log units"}
{"Compound": "O=C(O)/C=C/C(=O)O.Oc1cccc2[nH]cc(CCNC3CCCCC3)c12", "test system": "C57BL/6J mice", "setting": "subcutaneous, 0.03 mg/kg, 30 min", "endpoint": "distance travelled", "result": "3010 ± 259 cm"}
{"Compound": "CCN(CC)CCCC(C)Nc1ccnc2cc(Cl)ccc12.O=S(=O)(O)O (centres unmarked)", "tested on": "Dengue virus type 2", "assay": "viral replication, Rluc reporter replicon", "test system": "BHK-21 DENV2 replicon cells", "setting": "50 µM, 24 h", "endpoint": "inhibition", "result": "28.1 ± 3.6%"}
{"Compound": "COc1ccc(-n2nc(C(C)=O)s/c2=N\\N=C(/C)c2ccc(NC(C)=O)cc2)cc1", "tested on": "WI-38", "setting": "0.625 µM", "endpoint": "toxicity", "result": "96.5%"}
{"Compound": "C=CCNCCc1c[nH]c2cccc(O)c12.C=CCNCCc1c[nH]c2cccc(O)c12.O=C(O)/C=C/C(=O)O", "test system": "C57BL/6J mice", "setting": "subcutaneous, 0.03 mg/kg, 30 min", "endpoint": "distance travelled", "result": "2790 ± 111 cm"}
{"Compound": "O=c1ccn([C@@H]2O[C@](F)(CO)[C@@H](O)[C@H]2O)c(=O)[nH]1", "tested on": "human respiratory syncytial virus", "test system": "recombinant reporter virus", "setting": "concentration not given, scale 0 to 100, with: adenosine 3.7 µM", "endpoint": "normalized viral replication", "result": "0.49 and 0.76 and 0.64"}
{"Compound": "CCCCNCCc1c[nH]c2cccc(O)c12.O=C(O)/C=C/C(=O)O", "test system": "C57BL/6J mice", "setting": "subcutaneous, 10 mg/kg", "endpoint": "head twitch count", "result": "8.7 ± 1.1"}
{"Compound": "C=CCN1CC[C@]23c4c5ccc(O)c4O[C@H]2C(=O)CC[C@@]3(O)[C@H]1C5", "assay": "tail-flick test", "test system": "male ICR-CD1 mice", "setting": "subcutaneous, 5 mg/kg, 60 min", "endpoint": "% MPE", "result": "15.3% and 0.015% and -18.3% and -21.2% and -5.32% and 6.05%"}
{"Compound": "CCNCCc1c[nH]c2cccc(O)c12.CCNCCc1c[nH]c2cccc(O)c12.O=C(O)CCC(=O)O", "test system": "C57BL/6J mice", "setting": "subcutaneous, 1 mg/kg, 30 min session", "endpoint": "distance travelled", "result": "2420 ± 191 cm"}
{"Compound": "CCCCCCCCCCCCCCCCCC[N+](C)(C)CCCCCCCCCC[N+](C)(C)CCCCCCCCCCCCCCCCCC.[Br-].[Br-]", "tested on": "influenza A virus A/PR/8/34 (H1N1)", "setting": "concentration not given, pre-treatment", "endpoint": "HA titre reduction", "result": "4 log units"}
{"Compound": "CCCCC1(CCCC)CN(c2ccccc2)c2cc(SC)c(OCC(=O)N[C@@H](C(=O)NCC(=O)O)c3ccccc3)cc2S(=O)(=O)C1", "assay": "item: LDL cholesterol", "test system": "human, serum", "setting": "2.5 mg once daily, day 13", "endpoint": "serum LDL-C", "result": "101 mg/dL"}
{"Compound": "CCCCCCCCCCCCCCCC[N+](C)(C)CCCCCC[N+](C)(C)CCCCCCCCCCCCCCCC.[Br-].[Br-]", "tested on": "influenza A virus A/PR/8/34 (H1N1)", "setting": "concentration not given, pre-treatment", "endpoint": "HA titre reduction", "result": "3 ± 1 log units"}
{"Compound": "CCCNCCc1c[nH]c2cccc(O)c12.CCCNCCc1c[nH]c2cccc(O)c12.O=C(O)/C=C/C(=O)O", "test system": "C57BL/6J mice", "setting": "subcutaneous, 0.1 mg/kg, 30 min", "endpoint": "distance travelled", "result": "1850 ± 247 cm"}
{"note": "Some of these lines once more:"}
{"Compound": "CCCCC1(CCCC)CN(c2ccccc2)c2cc(SC)c(OCC(=O)N[C@@H](C(=O)NCC(=O)O)c3ccccc3)cc2S(=O)(=O)C1", "assay": "item: LDL cholesterol", "test system": "human, serum", "setting": "2.5 mg once daily, day 13", "endpoint": "serum LDL-C", "result": "101 mg/dL"}
{"Compound": "CCCCCCCCCCCCCCCCCC[N+](C)(C)Cc1ccc(C[N+](C)(C)CCCCCCCCCCCCCCCCCC)cc1.[Br-].[Br-]", "tested on": "influenza A virus A/PR/8/34 (H1N1)", "setting": "concentration not given, co-treatment", "endpoint": "protection", "result": "60.1 ± 2.9%"}
{"Compound": "COc1ccc(-n2nc(C(C)=O)s/c2=N\\N=C(/C)c2ccc(NC(C)=O)cc2)cc1", "tested on": "WI-38", "setting": "0.625 µM", "endpoint": "toxicity", "result": "96.5%"}
{"Compound": "COc1cc(CCC[P+](c2ccccc2)(c2ccccc2)c2ccccc2)c(OC)c2c1OCO2.[I-]", "tested on": "RXF 393", "assay": "SRB", "endpoint": "LC50", "result": "-4.41 log M"}
